Assay results gathered from unrelated publications.
Every numbered part comes from another study and shows a few of its results, in no order.

Series 1
Target: Interferon regulatory factor 3, full length, phosphomimetic (IRF3, Homo sapiens, UniProt Q14653, residues 1-427, S386D/S396D/S398D/S402D/T404D/S405D)
Sequence of UniProt Q14653 (whole entry, unmodified, looked up): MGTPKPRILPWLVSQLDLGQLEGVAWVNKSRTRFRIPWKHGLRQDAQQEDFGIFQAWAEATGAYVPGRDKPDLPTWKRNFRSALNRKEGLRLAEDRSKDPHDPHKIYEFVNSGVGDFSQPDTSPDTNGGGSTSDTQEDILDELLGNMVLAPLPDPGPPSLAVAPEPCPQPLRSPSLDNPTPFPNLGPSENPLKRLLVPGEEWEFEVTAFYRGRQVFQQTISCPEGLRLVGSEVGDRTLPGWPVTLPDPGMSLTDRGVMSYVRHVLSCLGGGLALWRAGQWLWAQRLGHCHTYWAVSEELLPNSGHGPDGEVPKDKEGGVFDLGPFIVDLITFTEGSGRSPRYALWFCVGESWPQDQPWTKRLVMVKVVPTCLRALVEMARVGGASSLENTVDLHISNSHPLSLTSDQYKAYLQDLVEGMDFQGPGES
Technique: protein-binding microarray
Molecule type: double-stranded DNA, one strand shown
Sample: in vitro
Tested at: 2540 nM top
Setting: 60-bp whole probe
Added: salmon DNA 0.4 mg/ml
Relative to: random background probes
Reading: higher = stronger binding
Oligonucleotide | fitted relative affinity [z-score]
GCCTAGCACTTAGGTTACGACTATCGGTTAGTGCTAGTCTTGATTCGCTTGACGCTGCTG | 0.47
GCCTAGCACATTACTCCCCAACTCGCCTTGTGCTAGGTCTTGATTCGCTTGACGCTGCTG | 1.28
GCCTAGCACAGGAAGACATCAAAGAGAGCGTGCTAGGTCTTGATTCGCTTGACGCTGCTG | -0.752
GCCTAGCACGACGGTTTCCTAATGCTGACGTGCTAGGTCTTGATTCGCTTGACGCTGCTG | 6.66

Series 2
Target: Prothrombin, mature alpha-thrombin (F2, Homo sapiens, UniProt P00734)
Technique: aptamer microarray, sandwich
Molecule type: DNA with 2'F-ANA
Sample: in vitro
Tested at: 200 nM
Setting: whole 15-mer aptamer, many near background
Added: Cy3 exosite-II aptamer, 400 nM
Reading: higher = stronger binding
Oligonucleotide: GGTTGGTGTGGTTGG
Modification | mean fluorescence intensity
2'F-ANA at 1 3 4 8 13 15 | 210 a.u.
2'F-ANA at 1 2 3 6 9 10 11 12 13 14 15 | 55.5 a.u.
2'F-ANA at 2 3 4 5 6 7 8 10 | 83.2 a.u.
2'F-ANA at 3 4 5 7 9 10 11 13 14 | 48.5 a.u.
2'F-ANA at 1 3 4 5 6 8 9 11 13 14 | 46.5 a.u.
2'F-ANA at 4 8 11 13 | 225 a.u.
2'F-ANA at 1 2 6 8 9 13 14 | 51.5 a.u.

Series 3
Target: Sal-like protein 4, full length isoform B (SALL4, Homo sapiens, UniProt Q9UJQ4-2, residues 1-616)
Technique: universal PBM
Molecule type: double-stranded DNA, one strand shown
Sample: in vitro
Tested at: not given
Setting: 8-mer, flanks averaged, mean of replicates
Reading: higher = stronger binding
Oligonucleotide | E-score
GTGTAACA | 0.068
CTAGGAGA | -0.0584
CCTGGGGC | -0.465
CGTGATGA | 0.0266
AAGCTAGT | 0.103
ATTATCGA | 0.174

Further values, each from its own experiment
Substance | target | test | test system | setting | how to read | quantity | value
PhoQ, residues 284 288 289 292 302 303 TLASMF | PhoP, residues 12 14 15 18 19 VQGLL (Escherichia coli, UniProt P23836) | Sort-seq, item: YFP reporter | E. coli | PhoQ-PhoP variant library, added: 10 µM Mg2+ | relative to: high Mg2+ state, higher = stronger signaling | fold induction | 7.26

For quick reference, copied from above (series 1):
Oligonucleotide | fitted relative affinity [z-score]
GCCTAGCACAGGAAGACATCAAAGAGAGCGTGCTAGGTCTTGATTCGCTTGACGCTGCTG | -0.752
GCCTAGCACATTACTCCCCAACTCGCCTTGTGCTAGGTCTTGATTCGCTTGACGCTGCTG | 1.28
